Measurements of several laboratories.
Protocols differ between the studies behind these lines.
Read-out: reporter gene
lasR: Transcriptional activator protein LasR (lasR, Pseudomonas aeruginosa, UniProt P25084)
lasR A127W: Transcriptional activator protein LasR (lasR, Pseudomonas aeruginosa, UniProt P25084, A127W)

O=C(CCCOc1cccc(Br)c1)N[C@H]1CCSC1=O  EC50 (lasR; agonist; Escherichia coli, JLD271 with LasR plasmid): 13 nM
CS(=O)(=O)c1cccc(OCCCC(=O)NC2CC3CC3C2O)c1 (stereo not drawn)  EC50 (lasR A127W; agonist; Escherichia coli lasB-lux reporter): > 100000 nM
O=C(Cn1cc(C2CCCC2)nn1)N[C@H]1CCOC1=O  IC50 (lasR; antagonist): 16300 nM
O=C(Oc1c(Br)cc(Br)cc1CNC(=O)c1ccccc1[N+](=O)[O-])c1ccccc1Cl  EC50 (lasR; agonist; Escherichia coli, JLD271 LasR reporter): < 5 nM
CS(=O)(=O)c1cccc(OCCCC(=O)N[C@H]2CCOC2=O)c1  EC50 (lasR A127W; agonist): 1200 nM
O=C(CCCCCCCCCN=C=S)CC(=O)N[C@H]1CCOC1=O  EC50 (lasR; agonist; PAO-JP2 pump active): 2600 nM
CCCCCCCCCCCCNC(=O)CC(=O)c1ccccc1  IC50 (lasR; antagonist; Pseudomonas aeruginosa PAO-JP2 GFP reporter; added: 150 nM OdDHL): 700 nM
O=C(NCc1cc(Br)cc(Br)c1OC(=O)c1ccccc1[N+](=O)[O-])c1ccccc1Cl  EC50 (lasR; agonist; Escherichia coli, JLD271 with LasR plasmid): 7.8 nM
O=C(Cn1cc(-c2cc(F)cc(F)c2)nn1)N[C@H]1CCOC1=O  IC50 (lasR; antagonist): 13700 nM

For quick reference, copied from above:
CS(=O)(=O)c1cccc(OCCCC(=O)NC2CC3CC3C2O)c1 (stereo not drawn)  EC50 (lasR A127W; agonist; Escherichia coli lasB-lux reporter): > 100000 nM
